Results from different studies.
Each numbered part is a random draw from the data of one study; scales do not carry over between parts.

Set 1
Target: RNA binding protein fox-1 homolog 2, RRM domain, GST-SBP tag (RBFOX2, Homo sapiens, UniProt O43251-10, residues 100-194)
Method: RNA Bind-n-Seq
Molecule type: RNA
Matrix: in vitro
Concentration: 365 nM
Notes: natural RNA segment, single round, ends assumed
Relative to: no-protein control
Reading: higher = stronger binding
All sequences stand within: GGGAGUUCUACAGUCCGACGAUC … UGGAAUUCUCGGGUGCCAA
`UUUCUCAUUUCCUGUAGAGAGAGAAUACCACUAACAAACAAACAAAAACUUUAGUGCCAAAAUAGUGGAACUAUUUUGUCAUCUUUUGAGAAAAAAAUAUACAAAGAAGU` — result for “RBNS enrichment (R)”: 0.578.
`UUUACGUCUUCAGCACCCUUGAUUAAAAUGGUGUCGUUUACUUAUGUGCACCAAUUGUCAAAACCACUGAGUGCUGUGCUGCCUAUGUGAGAAGAAAGUUACUGACUUGU` — result for “RBNS enrichment (R)”: 0.461.
Under “RBNS enrichment (R)”, `AAACAUGACUCGUAUAUGUCUCAGGUCCCUGCAGGGCCAAGCACCUAGCCUCGCUCUUGGCAGGUACUCAGCGAAUGAAUGCUGUAUAUGUUGGGUGCAAAGUUCCCUAC` is recorded as 1.25.
For `GGCUUUUACUUUGCACACCUUCAUUGCUUAAGAAGAAACUCAGGGUGCUGAGAAAGAUAUGUAUGCUGAAGGCUGUGAUUCCUCUUUUUAUUGUACCUAUGCCUGGGUGC`, “RBNS enrichment (R)” read 0.839.
For `AGAUGUUCCGUGGUGUUUGGUUUCCCUUUCUUCUCUCUCCUGCUCACUCUGCAUUAUAGCAGCAGCUUAUUUCUCUAAGGCUGGACAGCCUGGCUCUCGGCAGUGACGUC`, “RBNS enrichment (R)” read 0.613.
Under “RBNS enrichment (R)”, `GGUGUAGCUGCCUCACAUGAGGUUAUUGCAAGAGUUCCCCUUGCAAUACCCUUUGUGCCCUCAAGAAUUAAAAGCCUCUAUGAUCCAGAGUUGCUAUGCACCAAAUUUUG` is recorded as 0.544.
For `AAAAAAAAAAGUGUAAUUAGAAAUGGAAAUCUAGGUAAAGGAAGCUUUAAAAUGUUGUAUUUUUUCCCUGAAAUAAACUUUUAUGAUUUAAUGUCUUGGAAAAAGACUCA`, “RBNS enrichment (R)” read 1.23.
`CACAAGACCCUGUCUCAACCAGAAAAGAAAAAUGUGUUUGCCAAAUCAUAACUCAGGGGCUUUGAACAGAGCUGUCUCUGUUUCAAUUGGCAUCCUUGCUCAUCCAUUCC`: “RBNS enrichment (R)” 0.551.

Set 2
Target: Interferon regulatory factor 7, full length, phosphomimetic (IRF7, Homo sapiens, UniProt Q92985, residues 1-503, S471D/S472D/S475D/S476D/S477D/S483D/S484D/S487D)
Chain of UniProt Q92985 (whole entry, unmodified, looked up): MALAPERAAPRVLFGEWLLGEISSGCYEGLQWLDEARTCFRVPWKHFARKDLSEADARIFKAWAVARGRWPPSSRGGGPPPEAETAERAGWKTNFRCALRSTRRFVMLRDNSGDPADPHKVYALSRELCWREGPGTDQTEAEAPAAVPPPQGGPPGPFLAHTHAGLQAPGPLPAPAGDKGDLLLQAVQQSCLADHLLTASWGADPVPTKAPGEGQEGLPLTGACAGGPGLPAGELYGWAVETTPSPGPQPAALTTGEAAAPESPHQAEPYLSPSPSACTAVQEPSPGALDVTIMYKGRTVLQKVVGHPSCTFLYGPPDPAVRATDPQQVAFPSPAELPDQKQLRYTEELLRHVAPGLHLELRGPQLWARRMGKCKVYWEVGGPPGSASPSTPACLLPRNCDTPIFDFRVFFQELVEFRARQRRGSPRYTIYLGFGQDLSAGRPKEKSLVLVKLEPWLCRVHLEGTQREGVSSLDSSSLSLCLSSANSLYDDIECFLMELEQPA
Method: protein-binding microarray
Molecule type: double-stranded DNA, one strand shown
Matrix: in vitro
Concentration: 2200 nM top
Notes: 60-bp whole probe
With: salmon DNA 0.4 mg/ml
Relative to: random background probes
Reading: higher = stronger binding
All sequences stand within: GCCTAGCAC … GTCTTGATTCGCTTGACGCTGCTG
Under “fitted relative affinity”, `TTAGGACTGCTAATGCTTTAGTGCTAG` is recorded as 0.155 z-score.
Under “fitted relative affinity”, `TTAGATTTCGGGACGGGATTAGTGCTA` is recorded as 1.37 z-score.
Under “fitted relative affinity”, `CCAGGTTGGGAGGGGTAGGGGTGCTAG` is recorded as 0.567 z-score.
`GACGGTTTCGGGTATCGGGTCGTGCTA` — result for “fitted relative affinity”: 6.53 z-score.
`CACCTTCTTCATCAAGGACAGTGCTAG` — result for “fitted relative affinity”: 1.31 z-score.
Under “fitted relative affinity”, `TTAGGTTTCGGAACTGGGTTAGTGCTA` is recorded as 3.42 z-score.
For `TTAGAACTGGGGTCTGGATTAGTGCTA`, “fitted relative affinity” read -0.189 z-score.
`TTAGGTTTCGGACTGGTTTAGTGCTAG` — result for “fitted relative affinity”: 3.23 z-score.
For `GAAGGACTGGGTTTCGGGACGTGCTAG`, “fitted relative affinity” read 1.16 z-score.
`GCTTCTCCTTGGAATAGATCGTGCTAG` — result for “fitted relative affinity”: 1.48 z-score.
For `TTGGATTTCGGGTATCGATTAGTGCTA`, “fitted relative affinity” read 2.8 z-score.
For `TCTGTTTCTGATATGGTATGGTGCTAG`, “fitted relative affinity” read 3.36 z-score.
For `TTAGCTATCGGACTGGGTTAGTGCTAG`, “fitted relative affinity” read 0.14 z-score.
`TCACCTCTGGGCTGTTTGACTGTGCTA` — result for “fitted relative affinity”: 0.177 z-score.
`TTAGGGCTCGGACTGGGTTAGTGCTAG`: “fitted relative affinity” -1.14 z-score.
`GACGGTATCGACTTTCTGGACGTGCTA`: “fitted relative affinity” 1.21 z-score.
`TTAGATTTAAGTTCCGATTAGTGCTAG` — result for “fitted relative affinity”: 0.277 z-score.
For `TCAATTATTGTTTCCTCACTGTGCTAG`, “fitted relative affinity” read 1.64 z-score.
Under “fitted relative affinity”, `CTCTTTCTCTGCTACCCTTTGGTGCTA` is recorded as 2.61 z-score.

Set 3
Target: Prothrombin, mature alpha-thrombin (F2, Homo sapiens, UniProt P00734)
Method: aptamer microarray, sandwich
Molecule type: DNA with 2'F-ANA
Matrix: in vitro
Concentration: 200 nM
Notes: whole 15-mer aptamer, many near background
With: Cy3 exosite-II aptamer, 400 nM
Reading: higher = stronger binding
Strand: GGTTGGTGTGGTTGG
`2'F-ANA at 2 4 5 6 7 13 15` — result for “mean fluorescence intensity”: 50.8 a.u.
`2'F-ANA at 6 7 9 13 14 15` — result for “mean fluorescence intensity”: 154 a.u.
`2'F-ANA at 1 4 9 10 11 13` — result for “mean fluorescence intensity”: 52.7 a.u.
`2'F-ANA at 1 3 5 7 8 11 12 13 14` — result for “mean fluorescence intensity”: 68.5 a.u.
Under “mean fluorescence intensity”, `2'F-ANA at 4 6 7 12 14 15` is recorded as 122 a.u.
`2'F-ANA at 1 4 8 9 11 12 13 14` — result for “mean fluorescence intensity”: 63.6 a.u.
Under “mean fluorescence intensity”, `2'F-ANA at 2 3 4 6 7 8 9 11 12 13 15` is recorded as 504 a.u.
`2'F-ANA at 1 2 5 8 9 10 13 14`: “mean fluorescence intensity” 50.9 a.u.
For `2'F-ANA at 1 4 6 8 9 12 14 15`, “mean fluorescence intensity” read 59.3 a.u.
`2'F-ANA at 1 2 5 6 10 11`: “mean fluorescence intensity” 56.3 a.u.
`2'F-ANA at 2 3 4 5 8 9 10 13 14` — result for “mean fluorescence intensity”: 58.6 a.u.
Under “mean fluorescence intensity”, `2'F-ANA at 5 6 7 8 13 15` is recorded as 113 a.u.
For `2'F-ANA at 2 5 6 7 8 9 15`, “mean fluorescence intensity” read 78.6 a.u.
For `2'F-ANA at 1 5 7 8 11 13 14`, “mean fluorescence intensity” read 43.5 a.u.
For `2'F-ANA at 2 5 6 9 11 12 13 14`, “mean fluorescence intensity” read 47.3 a.u.
Under “mean fluorescence intensity”, `2'F-ANA at 1 2 3 4 5 7 10 12 15` is recorded as 50.4 a.u.
For `2'F-ANA at 1 3 4 5 6 7 8 10 11 12 14 15`, “mean fluorescence intensity” read 50.2 a.u.
Under “mean fluorescence intensity”, `2'F-ANA at 3 4 5 6 14 15` is recorded as 231 a.u.
For `2'F-ANA at 1 2 5 9 11`, “mean fluorescence intensity” read 100 a.u.
Under “mean fluorescence intensity”, `2'F-ANA at 1 2 3 9 10 13 15` is recorded as 65.5 a.u.
`2'F-ANA at 1 2 3 4 5 7 9 13 14 15` — result for “mean fluorescence intensity”: 47.6 a.u.
For `2'F-ANA at 1 3 4 5 6 10 11 12 13`, “mean fluorescence intensity” read 56.2 a.u.

Set 4
Target: Sal-like protein 4, full length isoform A (SALL4, Homo sapiens, UniProt Q9UJQ4, residues 1-1053)
Chain of UniProt Q9UJQ4 (whole entry, looked up): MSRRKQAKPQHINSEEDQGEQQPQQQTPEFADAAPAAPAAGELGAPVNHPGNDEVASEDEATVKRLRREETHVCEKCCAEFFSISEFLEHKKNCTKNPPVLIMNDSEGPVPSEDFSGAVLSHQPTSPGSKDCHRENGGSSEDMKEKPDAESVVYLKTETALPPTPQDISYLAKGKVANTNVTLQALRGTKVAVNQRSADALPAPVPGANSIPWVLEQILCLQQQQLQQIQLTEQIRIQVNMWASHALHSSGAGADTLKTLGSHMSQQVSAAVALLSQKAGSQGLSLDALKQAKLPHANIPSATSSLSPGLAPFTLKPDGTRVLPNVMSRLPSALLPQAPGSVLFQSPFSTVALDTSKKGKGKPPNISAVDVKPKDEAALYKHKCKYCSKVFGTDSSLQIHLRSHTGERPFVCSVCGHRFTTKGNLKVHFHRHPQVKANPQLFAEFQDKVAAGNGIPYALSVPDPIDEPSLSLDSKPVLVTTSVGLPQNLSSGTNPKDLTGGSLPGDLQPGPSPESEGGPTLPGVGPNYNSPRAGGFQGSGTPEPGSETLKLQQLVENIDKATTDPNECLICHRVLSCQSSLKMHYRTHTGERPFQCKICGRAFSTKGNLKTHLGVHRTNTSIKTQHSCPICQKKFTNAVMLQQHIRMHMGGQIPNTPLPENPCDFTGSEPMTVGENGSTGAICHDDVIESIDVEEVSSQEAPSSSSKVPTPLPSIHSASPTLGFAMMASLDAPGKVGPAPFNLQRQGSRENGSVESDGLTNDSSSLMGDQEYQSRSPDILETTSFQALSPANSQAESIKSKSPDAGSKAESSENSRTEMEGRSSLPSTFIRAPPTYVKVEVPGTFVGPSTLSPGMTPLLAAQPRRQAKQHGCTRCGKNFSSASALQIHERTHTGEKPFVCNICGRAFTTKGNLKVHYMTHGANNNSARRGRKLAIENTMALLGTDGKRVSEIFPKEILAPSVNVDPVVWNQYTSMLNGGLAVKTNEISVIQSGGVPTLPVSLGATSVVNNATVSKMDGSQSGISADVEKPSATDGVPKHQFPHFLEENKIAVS
Method: universal PBM
Molecule type: double-stranded DNA, one strand shown
Matrix: in vitro
Concentration: 600 nM
Notes: 8-mer, flanks averaged, mean of replicates
Reading: higher = stronger binding
The E-score of `AACCACTG` is reported as -0.108.
`AAAATAAC` gave an E-score of 0.338.
The E-score of `GGTCAAAC` is reported as -0.0298.
`CACAGCCA` has an E-score of -0.233.
For `GAAAACAC`, the E-score was -0.0426.
For `CACGTAAC`, the E-score was -0.078.
`AAGTTGGA` gave an E-score of 0.149.
With `AGGTACCG` the E-score was -0.262.
For `GCGTTTTA`, the E-score was 0.0749.
With `ATACCGAG` the E-score was 0.0545.
`AGTAGGAA` has an E-score of 0.0838.
`ACCTCTCG` has an E-score of -0.165.
For `ACCTGTAC`, the E-score was 0.0214.
The E-score of `ATCGCGGG` is reported as -0.289.
For `AGAGGGTC`, the E-score was -0.234.
For `GGTCCTAA`, the E-score was 0.111.
The E-score of `ACAGAGTA` is reported as 0.0909.
With `ACCCGATC` the E-score was -0.216.
`CCGTTATA` gave an E-score of 0.179.
With `GGTCGAAA` the E-score was -0.168.
The E-score of `AGGCTTTC` is reported as 0.0354.
`AGGTGTAA` gave an E-score of 0.0528.
For `TATTGCCA`, the E-score was 0.199.
For `CCAGTGGG`, the E-score was -0.381.
